Measurements collected from several papers.
Compare with care: the assays were run in different laboratories.
Cell line: NCI-H226

For C1=[N+]2CCCC[N+]3=Cc4ccc5[n]4[Au-]23[n]2c1ccc2-c1nc2ccccc2nc1-5.F[P-](F)(F)(F)(F)F, the TGI was 4.29 -log M (NCI60 five-dose screen).
For O=C(Nc1nnc2c1c(-c1ccc(Cl)cc1)nc1sc(=Cc3ccco3)c(=O)n12)c1ccccc1 (mixture of isomers), the cell growth was 23.8% (SRB; 10 µM, NCI60 single-dose screen; reference: untreated).
CNS(=O)(=O)Nc1nccc(Cc2c(C)c3ccc(Oc4ncccc4F)cc3oc2=O)c1F gave an IC50 of over 1000 nM (cell viability; 7 days).
With CN(C)CCN1CCN(c2ccc3nc(-c4ccc5nc(-c6ccc(C(F)(F)F)cc6)[nH]c5c4)[nH]c3c2)CC1 the growth percent was 64.2% (cell growth, NCI-60 SRB; 10 µM).
Cc1ccc(C(=O)/C=C/c2ccccc2)s1 gave an inhibition of 6.2% (cell growth or viability, SRB; 10 µM).
O=C(CCl)c1ccccc1Nc1cccc(C(F)(F)F)c1 has a GI50 of 5090 nM (cell growth or viability, CCK-8; 72 h).
CC(C)(C)c1cnc(CSc2cnc(NC(=O)C3CCN(C(=O)CCCCCCN4Cc5cc6c(cc5C4)C(=O)N(C4CCC(=O)NC4=O)C6=O)CC3)s2)o1 (centres unmarked) gave an IC50 of 93.6 nM (cell growth or viability, MTT).
For CCCCCCCCCCCCCCCCCCOc1ccccc1CCOP(=O)([O-])OCC[N+](C)(C)C, the inhibition was 10.9% (cell growth or viability, SRB; 10 µM).

Excerpt of the above:
CC(C)(C)c1cnc(CSc2cnc(NC(=O)C3CCN(C(=O)CCCCCCN4Cc5cc6c(cc5C4)C(=O)N(C4CCC(=O)NC4=O)C6=O)CC3)s2)o1 (centres unmarked) gave an IC50 of 93.6 nM (cell growth or viability, MTT).
